Results of several laboratories.
Numbered parts are unrelated; each lists some results of a single study. “And” joins repeats or separate records; there may be more than shown.
UniProt Q9UQM7, sequence (whole entry, looked up): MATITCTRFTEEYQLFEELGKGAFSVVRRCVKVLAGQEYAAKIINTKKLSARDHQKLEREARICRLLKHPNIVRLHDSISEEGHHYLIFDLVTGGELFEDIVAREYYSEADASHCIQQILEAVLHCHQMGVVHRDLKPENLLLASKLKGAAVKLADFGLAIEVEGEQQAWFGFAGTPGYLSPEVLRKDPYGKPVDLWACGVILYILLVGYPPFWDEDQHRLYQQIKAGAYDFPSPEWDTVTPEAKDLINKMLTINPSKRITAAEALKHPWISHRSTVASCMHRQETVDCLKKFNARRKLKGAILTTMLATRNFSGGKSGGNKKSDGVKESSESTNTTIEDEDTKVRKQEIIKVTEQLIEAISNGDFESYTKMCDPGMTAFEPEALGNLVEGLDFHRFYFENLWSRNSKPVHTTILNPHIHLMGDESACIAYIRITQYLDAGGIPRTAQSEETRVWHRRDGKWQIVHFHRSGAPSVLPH
UniProt P16234, sequence (whole entry, looked up): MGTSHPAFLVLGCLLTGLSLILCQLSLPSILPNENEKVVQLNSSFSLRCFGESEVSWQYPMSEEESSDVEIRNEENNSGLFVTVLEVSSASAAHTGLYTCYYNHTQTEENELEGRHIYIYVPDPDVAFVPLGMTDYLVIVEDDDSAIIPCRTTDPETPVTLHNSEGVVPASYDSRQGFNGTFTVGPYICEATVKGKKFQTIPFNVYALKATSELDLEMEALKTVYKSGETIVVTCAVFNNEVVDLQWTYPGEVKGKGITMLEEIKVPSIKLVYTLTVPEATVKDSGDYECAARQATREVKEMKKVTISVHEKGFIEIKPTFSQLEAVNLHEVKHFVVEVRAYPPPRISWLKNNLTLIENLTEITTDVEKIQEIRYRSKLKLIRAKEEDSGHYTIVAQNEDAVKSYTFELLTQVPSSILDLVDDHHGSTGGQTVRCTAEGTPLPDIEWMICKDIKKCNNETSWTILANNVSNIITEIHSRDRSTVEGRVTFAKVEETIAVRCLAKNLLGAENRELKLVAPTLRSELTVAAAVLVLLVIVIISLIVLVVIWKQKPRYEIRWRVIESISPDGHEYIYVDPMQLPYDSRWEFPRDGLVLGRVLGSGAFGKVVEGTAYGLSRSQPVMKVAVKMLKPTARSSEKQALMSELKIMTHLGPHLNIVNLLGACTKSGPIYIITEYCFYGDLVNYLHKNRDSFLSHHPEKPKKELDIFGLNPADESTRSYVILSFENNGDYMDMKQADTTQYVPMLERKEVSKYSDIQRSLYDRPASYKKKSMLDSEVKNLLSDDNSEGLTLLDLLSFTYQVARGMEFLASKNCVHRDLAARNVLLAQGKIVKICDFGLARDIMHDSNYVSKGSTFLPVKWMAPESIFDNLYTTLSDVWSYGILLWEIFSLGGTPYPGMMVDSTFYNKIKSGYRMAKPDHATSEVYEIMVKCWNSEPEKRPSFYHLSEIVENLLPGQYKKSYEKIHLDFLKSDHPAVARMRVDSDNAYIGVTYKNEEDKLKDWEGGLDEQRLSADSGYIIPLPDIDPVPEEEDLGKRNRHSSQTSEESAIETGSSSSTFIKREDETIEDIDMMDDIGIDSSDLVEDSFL
UniProt P10721, sequence (whole entry, looked up): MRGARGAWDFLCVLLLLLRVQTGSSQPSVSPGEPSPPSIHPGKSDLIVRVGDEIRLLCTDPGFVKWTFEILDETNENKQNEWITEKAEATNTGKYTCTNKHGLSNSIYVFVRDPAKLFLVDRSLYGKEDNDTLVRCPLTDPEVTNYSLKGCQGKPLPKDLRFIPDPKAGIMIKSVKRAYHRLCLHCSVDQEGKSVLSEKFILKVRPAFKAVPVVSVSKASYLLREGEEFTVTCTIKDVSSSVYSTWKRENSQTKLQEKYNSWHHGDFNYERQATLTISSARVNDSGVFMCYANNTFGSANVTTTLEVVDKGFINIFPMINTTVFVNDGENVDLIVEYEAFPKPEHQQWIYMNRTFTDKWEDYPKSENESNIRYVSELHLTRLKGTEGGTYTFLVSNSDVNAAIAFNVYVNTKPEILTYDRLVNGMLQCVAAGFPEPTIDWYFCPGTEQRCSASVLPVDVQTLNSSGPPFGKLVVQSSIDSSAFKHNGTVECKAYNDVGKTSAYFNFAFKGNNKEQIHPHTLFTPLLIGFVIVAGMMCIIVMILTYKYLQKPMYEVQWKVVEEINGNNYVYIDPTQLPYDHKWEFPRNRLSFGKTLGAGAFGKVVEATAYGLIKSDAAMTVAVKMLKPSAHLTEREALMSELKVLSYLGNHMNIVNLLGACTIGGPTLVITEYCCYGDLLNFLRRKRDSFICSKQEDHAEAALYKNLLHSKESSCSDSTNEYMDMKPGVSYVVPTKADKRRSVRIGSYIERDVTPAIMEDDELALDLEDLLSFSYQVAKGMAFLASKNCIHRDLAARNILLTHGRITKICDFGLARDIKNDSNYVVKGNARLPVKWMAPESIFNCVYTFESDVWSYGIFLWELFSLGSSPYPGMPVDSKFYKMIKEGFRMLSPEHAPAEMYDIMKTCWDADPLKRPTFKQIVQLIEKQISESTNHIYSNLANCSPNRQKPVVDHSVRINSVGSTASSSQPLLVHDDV

Set 1 — method: Incucyte 3D growth; tested at: 30 µM; reading: higher = more growth
SMILES: CC(C)(C(=O)O)[C@H](NC(=O)Cc1cccc(I)c1)c1ccc2oc(=O)[nH]c2c1
cell line	time	spheroid area
NCI-H358	24 h	3.17e+06 a.u. and 3.72e+06 a.u. and 2.83e+06 a.u. and 4.31e+06 a.u. and 3.34e+06 a.u. and 3.43e+06 a.u.
MEL-JUSO	354.52 h	4.04e+07 a.u. and 4.18e+07 a.u. and 5.77e+07 a.u. and 4.31e+07 a.u. and 5.07e+07 a.u. and 2.94e+07 a.u.
MEL-JUSO	312.52 h	4.26e+07 a.u. and 2.39e+07 a.u. and 2.63e+07 a.u. and 2.67e+07 a.u. and 2.99e+07 a.u. and 2.79e+07 a.u.
A375	246.52 h	1.71e+08 a.u. and 1.77e+08 a.u. and 1.87e+08 a.u. and 1.66e+08 a.u. and 1.63e+08 a.u. and 1.92e+08 a.u.
A375	90 h	2.51e+07 a.u. and 5.58e+07 a.u. and 7.2e+07 a.u. and 5.17e+07 a.u. and 7.07e+07 a.u. and 5.44e+07 a.u.
A375	72.52 h	2.96e+07 a.u. and 3.61e+07 a.u. and 3.87e+07 a.u. and 4.22e+07 a.u. and 5.18e+07 a.u. and 4.42e+07 a.u.
MEL-JUSO	522.52 h	2.72e+07 a.u. and 2.69e+07 a.u. and 2.09e+07 a.u. and 5.89e+07 a.u. and 2.94e+07 a.u. and 7.87e+07 a.u.
MEL-JUSO	300.52 h	4.01e+07 a.u. and 2.38e+07 a.u. and 2.57e+07 a.u. and 2.21e+07 a.u. and 2.55e+07 a.u. and 2.44e+07 a.u.
A375	264.52 h	2.06e+08 a.u. and 1.77e+08 a.u. and 1.97e+08 a.u. and 1.88e+08 a.u. and 1.75e+08 a.u.
NCI-H1437	222 h	5.75e+07 a.u. and 4.76e+07 a.u. and 8.21e+07 a.u. and 9.18e+07 a.u. and 9.85e+07 a.u. and 3.73e+07 a.u.

Set 2 — observed: enzyme activity; action: inhibitor; tested at: 77 µM; relative to: untreated
Target: DNA polymerase theta, ATPase domain (POLQ, Homo sapiens, UniProt O75417)
UniProt O75417, sequence (whole entry, unmodified, looked up): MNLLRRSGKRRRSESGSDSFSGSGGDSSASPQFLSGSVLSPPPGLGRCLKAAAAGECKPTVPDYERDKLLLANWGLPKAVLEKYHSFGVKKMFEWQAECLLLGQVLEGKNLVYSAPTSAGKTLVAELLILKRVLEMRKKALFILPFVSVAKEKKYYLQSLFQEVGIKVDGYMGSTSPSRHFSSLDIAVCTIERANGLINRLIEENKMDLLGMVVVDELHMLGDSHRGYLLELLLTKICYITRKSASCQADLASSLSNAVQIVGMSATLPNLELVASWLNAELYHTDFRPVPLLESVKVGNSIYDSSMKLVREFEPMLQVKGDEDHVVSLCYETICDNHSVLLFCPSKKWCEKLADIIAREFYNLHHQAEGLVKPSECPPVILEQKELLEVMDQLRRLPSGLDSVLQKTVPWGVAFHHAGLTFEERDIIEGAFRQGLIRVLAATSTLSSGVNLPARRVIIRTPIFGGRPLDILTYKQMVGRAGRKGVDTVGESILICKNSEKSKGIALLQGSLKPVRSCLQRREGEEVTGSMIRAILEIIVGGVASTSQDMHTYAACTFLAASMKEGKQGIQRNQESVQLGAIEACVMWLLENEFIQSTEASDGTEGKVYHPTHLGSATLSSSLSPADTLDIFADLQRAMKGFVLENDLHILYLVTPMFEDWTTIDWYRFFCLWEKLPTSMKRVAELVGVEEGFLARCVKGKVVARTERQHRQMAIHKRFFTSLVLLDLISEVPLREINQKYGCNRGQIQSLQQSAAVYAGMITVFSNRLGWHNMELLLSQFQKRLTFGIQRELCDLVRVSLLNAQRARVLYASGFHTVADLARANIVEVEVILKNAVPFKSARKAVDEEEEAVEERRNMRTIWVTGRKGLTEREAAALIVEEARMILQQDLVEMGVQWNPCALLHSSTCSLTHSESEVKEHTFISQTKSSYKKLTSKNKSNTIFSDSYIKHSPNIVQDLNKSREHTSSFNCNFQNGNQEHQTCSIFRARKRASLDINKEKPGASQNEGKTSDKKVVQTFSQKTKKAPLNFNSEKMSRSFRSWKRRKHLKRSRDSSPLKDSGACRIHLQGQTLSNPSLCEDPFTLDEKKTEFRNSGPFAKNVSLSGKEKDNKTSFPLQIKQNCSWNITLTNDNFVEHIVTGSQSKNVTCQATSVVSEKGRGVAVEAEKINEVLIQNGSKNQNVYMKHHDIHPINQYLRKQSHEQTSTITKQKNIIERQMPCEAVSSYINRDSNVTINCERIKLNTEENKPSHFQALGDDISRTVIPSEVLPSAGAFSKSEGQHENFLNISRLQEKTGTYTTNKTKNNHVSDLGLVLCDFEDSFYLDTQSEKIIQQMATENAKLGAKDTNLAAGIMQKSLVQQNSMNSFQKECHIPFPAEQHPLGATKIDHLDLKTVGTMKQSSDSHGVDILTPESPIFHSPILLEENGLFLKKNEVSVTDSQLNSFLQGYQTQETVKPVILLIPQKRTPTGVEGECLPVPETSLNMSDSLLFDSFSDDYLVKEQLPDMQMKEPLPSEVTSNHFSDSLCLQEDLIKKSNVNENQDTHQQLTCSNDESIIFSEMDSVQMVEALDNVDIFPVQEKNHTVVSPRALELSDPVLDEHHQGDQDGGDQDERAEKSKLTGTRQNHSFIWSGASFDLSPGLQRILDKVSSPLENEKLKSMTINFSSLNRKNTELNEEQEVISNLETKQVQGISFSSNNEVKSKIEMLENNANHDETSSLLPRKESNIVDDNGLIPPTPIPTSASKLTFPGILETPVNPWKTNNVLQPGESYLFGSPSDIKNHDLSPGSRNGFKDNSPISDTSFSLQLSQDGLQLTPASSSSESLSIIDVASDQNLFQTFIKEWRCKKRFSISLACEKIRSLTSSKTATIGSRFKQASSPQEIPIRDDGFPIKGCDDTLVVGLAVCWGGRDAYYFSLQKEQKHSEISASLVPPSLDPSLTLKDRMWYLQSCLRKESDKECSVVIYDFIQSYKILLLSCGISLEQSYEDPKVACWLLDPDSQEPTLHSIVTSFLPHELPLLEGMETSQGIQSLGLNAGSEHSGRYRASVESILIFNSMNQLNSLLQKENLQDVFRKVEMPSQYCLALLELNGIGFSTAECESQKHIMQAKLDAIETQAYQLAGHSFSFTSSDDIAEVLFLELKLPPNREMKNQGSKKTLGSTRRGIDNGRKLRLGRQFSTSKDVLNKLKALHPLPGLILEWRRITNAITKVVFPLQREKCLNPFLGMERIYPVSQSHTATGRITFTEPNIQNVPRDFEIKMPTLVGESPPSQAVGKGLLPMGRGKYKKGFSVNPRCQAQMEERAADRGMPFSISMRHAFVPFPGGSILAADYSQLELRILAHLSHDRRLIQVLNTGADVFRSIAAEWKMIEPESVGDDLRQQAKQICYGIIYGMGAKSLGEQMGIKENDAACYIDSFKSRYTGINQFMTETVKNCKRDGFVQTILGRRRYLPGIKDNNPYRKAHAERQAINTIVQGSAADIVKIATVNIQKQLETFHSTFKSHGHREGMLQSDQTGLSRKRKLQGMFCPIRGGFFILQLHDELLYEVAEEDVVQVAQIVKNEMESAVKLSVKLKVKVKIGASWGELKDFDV
SMILES	remaining activity [%]
COc1ccccc1N1CCN(CCCCN2C(=O)c3ccccc3C2=O)CC1	96
CC(C)n1nc(-c2ccc3oc(N)nc3c2)c2c(N)ncnc21	101
COc1cc2ncnc(Nc3cccc(O)c3)c2cc1OC	96
O=C1NC(c2cccc([N+](=O)[O-])c2)=CCN1c1ccccc1O	106
C[C@H](NC(=O)[C@@H](O)c1cc(F)cc(F)c1)C(=O)N[C@@H]1C(=O)N(C)c2ccccc2-c2ccccc21	99.7
CCc1c(C(=O)NCCc2ccc(N3CCCCC3)cc2)[nH]c2ccc(Cl)cc12	92.1
CCCc1c(-c2ccc(O)cc2)nn(-c2ccc(O)cc2)c1-c1ccc(O)cc1	112
CCCCCC(O)CCCC(=O)O (centres unmarked)	101
CCNC(=O)c1[nH]nc(-c2cc(Cl)c(O)cc2O)c1-c1ccc(OC)cc1	93.6
Nc1nc(OCc2ccccc2)c2nc[nH]c2n1	97.2
O=C(c1ccc(OCCCc2c[nH]cn2)cc1)C1CC1	101
C1CCN2C[C@@H]3C[C@@H](CN4CCCC[C@@H]34)[C@H]2C1	101
CCOC1O[C@H]([C@@H](COCc2ccccc2)OCc2ccccc2)[C@H](OCc2ccccc2)[C@H]1O (some centres unmarked)	104

Set 3 — method: phase 2a trial; species: idiopathic pulmonary fibrosis patients
Structure (SMILES): CC(C)n1cnc(-c2ccc(F)cc2)c1-c1ncc(C(=O)Nc2ccc(N3CCN(C)CC3)cc2)[nH]1
item	dose	setting	adverse event incidence [%]
chronic gastritis	dose not given	grade 4, all arms pooled	0
ventricular extrasystoles	60 mg once daily	grade 3	0
hydroxybutyrate dehydrogenase increased	30 mg once daily	grade 1	0
gingivitis	60 mg once daily	grade 1	0
appendicitis	dose not given	grade 2, all arms pooled	0
synovitis	dose not given	grade 1, all arms pooled	0
allergic conjunctivitis	60 mg once daily	grade 4	0
gingivitis	dose not given	grade 2, all arms pooled	0

Set 4 — method: competition with immobilised ligand; tested at: 1 µM
Structure (SMILES): CO[C@@H](C)c1c(Nc2ccc([C@@H](N(C)C(=O)C3CCS(=O)(=O)CC3)C(F)(F)F)cc2)cnc2cc(Cl)nn12
target	observed	remaining binding
STK11 (Homo sapiens, UniProt Q15831)	cell-free assay	78%
MAP3K11 (Homo sapiens, UniProt Q16584)	cell-free assay	85%
NEK4 (Homo sapiens, UniProt P51957)	cell-free assay	90%
GRK3 (Homo sapiens, UniProt P35626)	cell-free assay	91%
CAMK2A (Homo sapiens, UniProt Q9UQM7)	cell-free assay	83%
PKMYT1 (Homo sapiens, UniProt Q99640)	cell-free assay	99%
Tyrosine-protein kinase ABL1, phosphorylated (ABL1, Homo sapiens, UniProt P00519, Q252H)	cell-free assay	100%
FER (Homo sapiens, UniProt P16591)	cell-free assay	89%
PDGFRA (Homo sapiens, UniProt P16234)	cell-free assay	100%
TRPM6 (Homo sapiens, UniProt Q9BX84)	cell-free assay	100%
TSSK1B (Homo sapiens, UniProt Q9BXA7)	cell-free assay	100%
Tyrosine-protein kinase ABL1, phosphorylated (ABL1, Homo sapiens, UniProt P00519, E255K)	binding	75%
KIT (Homo sapiens, UniProt P10721)	cell-free assay	100%
GSK3B (Homo sapiens, UniProt P49841)	cell-free assay	100%
CSNK1A1 (Homo sapiens, UniProt P48729)	cell-free assay	72%
FGFR3 (Homo sapiens, UniProt P22607, G697C)	cell-free assay	84%
CDK13 (Homo sapiens, UniProt Q14004)	cell-free assay	100%
FLT3 (Homo sapiens, UniProt P36888, N841I)	cell-free assay	57%
Tyrosine-protein kinase ABL1, phosphorylated (ABL1, Homo sapiens, UniProt P00519, M351T)	cell-free assay	59%
MAPKAPK2 (Homo sapiens, UniProt P49137)	cell-free assay	100%
FLT3 (Homo sapiens, UniProt P36888, R834Q)	cell-free assay	100%
FLT3 (Homo sapiens, UniProt P36888, D835H)	cell-free assay	63%

Excerpt of the above (set 3):
item	dose	setting	adverse event incidence [%]
appendicitis	dose not given	grade 2, all arms pooled	0
hydroxybutyrate dehydrogenase increased	30 mg once daily	grade 1	0
gingivitis	60 mg once daily	grade 1	0
